Assay results of several laboratories.
Lines come from different studies, so protocols differ. Several values in a cell are separate wells, animals, samples, runs or records. ± gives the spread as reported.

For `CNS(=O)(=O)Nc1nccc(Cc2c(C)c3ccc(Oc4ncccc4F)cc3oc2=O)c1F`, the IC50 was 7.38 nM (HSC-2; cell viability; 7 days).
`CC(C)(C)c1cc(-c2ccc3cccnc3n2)nc(-c2ccc3cccnc3n2)c1.[Cl-].[Cl-].[Ru+2].c1ccc2cc3nc4c5cccnc5c5ncccc5c4nc3cc2c1` has an EC50 of 2170 nM (B16-F10; resazurin; added: light 523 nm, 20 mW, 100 J/cm2).
The EC50 of `Cc1nc(NCCOCCOCCNc2ncc(C(=O)NC3=NN(c4ccc(Cl)c(Cl)c4)CC3)c(C)n2)ncc1C(=O)NC1=NN(c2ccc(Cl)c(Cl)c2)CC1` is reported as 57 nM (KCL-22; cell growth or viability, ATP luminescence; 72 h).
For `Cc1ccc(-n2cc(CSc3nc4ccccc4n3Cc3cn(-c4ccc(C)cc4)nn3)nn2)cc1`, the cytotoxicity was 83.6% (HEK293; MTT; 125 ppm).
`CC(C)(C)c1cc(-c2ccc3cc4ccccc4nc3n2)nc(-c2ccc3cc4ccccc4nc3n2)c1.[Cl-].[Cl-].[Ru+2].c1ccc2cc3nc4c5cccnc5c5ncccc5c4nc3cc2c1` gave a phototoxicity index of 1 (B16-F10; resazurin; added: light 633 nm, 100 J/cm2; baseline: dark EC50 over light EC50).
With `CSC(=S)N/N=C(\C)c1ccc(Nc2nnc(-c3ccc(Cl)cc3)c3ccccc23)cc1` the cell death was 94.2% (MCF7; cell growth or viability, MTT; 5 µM).
`COc1cc(N2CCN(C(=O)C3CCCN3)CC2)ccc1Nc1ncc(Cl)c(Nc2ccccc2P(C)(C)=O)n1` (centres unmarked): “cells in G1 phase” 86% (NCI-H3122; flow cytometry; 500 nM, 24 h).
With `CO[C@@H]1[C@@H](OC(N)=O)[C@@H](O)[C@H](Oc2ccc3c(O)c(NC(=O)c4ccc(O)c(CC=C(C)C)c4)c(=O)oc3c2C)OC1(C)C` the colony survival was 0.339% (DLD-1 BRCA2-/-; 300 µM, replicate A; baseline: untreated).
`CC(=O)NCC(=O)N[C@@H](Cc1ccccc1)C(=O)N[C@@H](Cc1ccccc1)C(=O)N[C@@H](Cc1ccc(O)cc1)C(=O)NCC(=O)N[C@@H](Cc1ccc(O)cc1)C(=O)NCC(=O)N[C@@H](CO)C(=O)N[C@@H](CO)C(=O)N[C@@H](CO)C(=O)N[C@@H](CCCNC(=N)N)C(=O)N[C@@H](CCCNC(=N)N)C(=O)N[C@@H](C)C(=O)N1CCC[C@H]1C(=O)N[C@@H](CCC(N)=O)C(=O)N[C@H](C(=O)O)[C@@H](C)O` has a proliferation-promoting concentration of 31.2 to 500 nM (mouse dermal papilla cells; CCK-8; 48 h).
With `Cc1ccncc1.[Cl-].[Cl-].[Ru+2].c1cc(-c2ccc3cccnc3n2)nc(-c2ccc3cccnc3n2)c1.c1ccc2cc3nc4c5cccnc5c5ncccc5c4nc3cc2c1` the EC50 was 63200 ± 1000 nM (B16-F10; cell viability; dark).
The IC50 of `C=CC(=O)N1CCCC(n2c(=O)c3ncccc3n(Cc3ccc(Oc4ccccc4)cc3)c2=O)C1` (centres unmarked) is reported as 800 nM (A20; cell growth or viability, MTT; 72 h).
`NC(=O)c1ccc(-c2ccccc2Cl)c2c3c([nH]c12)CCC(N)C3` (centres unmarked) gave an IC50 of 20 nM (B16-F10; cell growth; 96 h).
Under “log2 fold change”, `CN1CCCNC(=O)c2cccc(c2)C(=O)NCCCN(C)CCCNc2cccc3c2C(=O)c2cccc(c2C3=O)NCCC1` is recorded as -2.01 (SAS; RNA-seq, item: MT-ND4 mRNA; 1 µM, 6 h; baseline: untreated cells).
For `C=CC(=O)N1[C@H](c2ccc3c(c2)OCO3)c2[nH]c3ccccc3c2C[C@@H]1C(=O)NC1CC1`, “mean neuron degeneration” read 64% (rat DRG neurons; 0.1235 µM, 48 h, added: vincristine 40 nM).
Under “log2 fold change”, `Cn1ncc2cc(-c3cncc(Cl)c3N3CCC4(CCNC4=O)CC3)ccc21` is recorded as 2.03 (LS174T; gene expression, microarray, item: SLC40A1 mRNA; concentration not given, 24 h; baseline: untreated cells).
The GI50 of `O=C(C[Se]C(=O)c1cc2ccccc2s1)Nc1cccc(C(F)(F)F)c1` is reported as 1790 nM (NCI60 breast subpanel; NCI60 five-dose screen).
`CC1(C)CC[C@@]2(CO)C(=C3C=C[C@@H]4[C@@]5(C)CC[C@H](O)[C@@](C)(CO)[C@@H]5CC[C@@]4(C)[C@]3(C)C[C@@H]2O)C1` gave a protein level of 1.2 and 0.707 and 0.696 (HepG2, SIRT1 siRNA; Western blot, item: mTOR; concentration not given, high dose, unit not given, added: ethanol; baseline: β-actin).
`Cc1ncsc1-c1ccc(C(C)NC(=O)C2CC(O)CN2C(=O)C(NC(=O)CCCCCCCCCCN2CCCC(Nc3ncc(Cl)c(Nc4ccccc4S(=O)(=O)C(C)C)n3)C2)C(C)(C)C)cc1` (centres unmarked): “log2 fold change” -1.47 (22Rv1; RNA-seq, item: ZNF627 mRNA; concentration not given; baseline: DMSO).
`COc1ccc2c(c1)c(CC(=O)[Se]CC(=O)Nc1cccc(C(F)(F)F)c1)c(C)n2C(=O)c1ccc(Cl)cc1` has a GI50 of 1950 nM (NCI60 breast subpanel; NCI60 five-dose screen).
The IC50 of `CCOc1cncc(-c2ccc(NC(=O)C3(c4ccnc(NS(=O)(=O)C5CC5)n4)CCOCC3)nc2)n1` is reported as 209 nM (renal cancer; cell viability, CellTiter-Glo; DMSO 0.1%; 72 h, line code 1183).
The IC50 of `CC(C)c1ccc(N(C)c2ccc3c(c2)OCC[C@H]3CNc2cnccc2C(=O)O)cc1` is reported as no less than 10000 nM (NCI-H1838; cell growth or viability, ATP luminescence; 7 days).
With `CCN(CC)CC(=O)Nc1cccc(-n2cc(-c3ccc4ccc(-c5cn(-c6cccc(NC(=O)CN(CC)CC)c6)nn5)cc4c3)nn2)c1` the fold regulation was 1.02 (RCC4; PCR angiogenesis array, item: PROK2; 5 x IC50, 2 h, normoxia; baseline: untreated).
`CSC(=NN=C(C)c1ccc(S(=O)(=O)N2CCC(C)CC2)cc1)N(C)C` — result for “cells in S phase”: 31.5% (HCT-116; flow cytometry; 3.66 µM (IC50), 72 h).

Excerpt of the above:
The IC50 of `C=CC(=O)N1CCCC(n2c(=O)c3ncccc3n(Cc3ccc(Oc4ccccc4)cc3)c2=O)C1` (centres unmarked) is reported as 800 nM (A20; cell growth or viability, MTT; 72 h).
`CSC(=NN=C(C)c1ccc(S(=O)(=O)N2CCC(C)CC2)cc1)N(C)C` — result for “cells in S phase”: 31.5% (HCT-116; flow cytometry; 3.66 µM (IC50), 72 h).
